Assay results pooled from the literature.
Numbered parts are unrelated; each lists some results of a single study. “And” joins repeats or separate records; there may be more than shown.
UniProt P00519, sequence (whole entry, unmodified, looked up): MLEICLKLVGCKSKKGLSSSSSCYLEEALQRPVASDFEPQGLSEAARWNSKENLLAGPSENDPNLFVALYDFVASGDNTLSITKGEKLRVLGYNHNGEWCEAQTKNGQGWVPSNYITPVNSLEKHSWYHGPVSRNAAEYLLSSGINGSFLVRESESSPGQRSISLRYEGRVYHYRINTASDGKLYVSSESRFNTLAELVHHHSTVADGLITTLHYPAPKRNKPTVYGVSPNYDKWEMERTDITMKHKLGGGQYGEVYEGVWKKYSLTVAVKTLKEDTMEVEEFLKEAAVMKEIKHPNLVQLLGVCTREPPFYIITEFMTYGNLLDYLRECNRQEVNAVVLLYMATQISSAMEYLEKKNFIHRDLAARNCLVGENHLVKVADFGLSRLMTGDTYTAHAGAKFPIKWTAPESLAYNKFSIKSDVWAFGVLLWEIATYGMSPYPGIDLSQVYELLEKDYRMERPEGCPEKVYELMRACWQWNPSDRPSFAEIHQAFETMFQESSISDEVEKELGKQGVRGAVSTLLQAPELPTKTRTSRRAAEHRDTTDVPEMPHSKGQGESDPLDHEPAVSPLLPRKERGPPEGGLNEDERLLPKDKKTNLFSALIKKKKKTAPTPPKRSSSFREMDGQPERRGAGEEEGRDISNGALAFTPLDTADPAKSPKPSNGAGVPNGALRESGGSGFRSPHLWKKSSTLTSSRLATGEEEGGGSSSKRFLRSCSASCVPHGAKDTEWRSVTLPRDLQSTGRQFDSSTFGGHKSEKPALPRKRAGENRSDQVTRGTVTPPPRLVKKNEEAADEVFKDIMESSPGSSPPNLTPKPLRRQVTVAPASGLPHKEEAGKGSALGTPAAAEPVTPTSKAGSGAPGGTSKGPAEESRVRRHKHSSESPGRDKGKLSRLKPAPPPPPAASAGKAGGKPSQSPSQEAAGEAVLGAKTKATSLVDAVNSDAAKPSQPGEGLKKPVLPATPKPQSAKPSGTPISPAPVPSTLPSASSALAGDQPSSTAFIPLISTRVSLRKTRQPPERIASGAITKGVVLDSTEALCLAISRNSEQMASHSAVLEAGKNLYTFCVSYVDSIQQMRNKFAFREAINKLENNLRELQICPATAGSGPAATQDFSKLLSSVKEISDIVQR
UniProt Q8IWQ3, sequence (whole entry, looked up): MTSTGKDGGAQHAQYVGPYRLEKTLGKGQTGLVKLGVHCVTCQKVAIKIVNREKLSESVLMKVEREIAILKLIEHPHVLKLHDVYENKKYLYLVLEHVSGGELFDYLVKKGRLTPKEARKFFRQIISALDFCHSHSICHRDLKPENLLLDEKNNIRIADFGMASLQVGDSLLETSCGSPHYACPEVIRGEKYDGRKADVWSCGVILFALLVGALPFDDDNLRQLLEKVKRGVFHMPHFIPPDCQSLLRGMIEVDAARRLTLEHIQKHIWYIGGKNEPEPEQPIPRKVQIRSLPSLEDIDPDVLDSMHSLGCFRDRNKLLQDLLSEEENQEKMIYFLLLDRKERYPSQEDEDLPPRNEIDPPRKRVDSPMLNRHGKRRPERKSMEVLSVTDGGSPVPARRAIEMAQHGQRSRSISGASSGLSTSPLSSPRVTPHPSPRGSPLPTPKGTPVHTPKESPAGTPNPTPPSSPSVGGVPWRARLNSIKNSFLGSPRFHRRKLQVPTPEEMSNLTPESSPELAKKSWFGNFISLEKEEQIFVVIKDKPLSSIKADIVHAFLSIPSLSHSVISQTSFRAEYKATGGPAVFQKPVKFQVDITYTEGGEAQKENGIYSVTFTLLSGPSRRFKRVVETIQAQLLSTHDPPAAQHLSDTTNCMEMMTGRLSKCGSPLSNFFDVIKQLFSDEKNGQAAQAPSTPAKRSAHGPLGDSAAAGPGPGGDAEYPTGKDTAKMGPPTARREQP
UniProt Q9NQU5, sequence (whole entry, looked up): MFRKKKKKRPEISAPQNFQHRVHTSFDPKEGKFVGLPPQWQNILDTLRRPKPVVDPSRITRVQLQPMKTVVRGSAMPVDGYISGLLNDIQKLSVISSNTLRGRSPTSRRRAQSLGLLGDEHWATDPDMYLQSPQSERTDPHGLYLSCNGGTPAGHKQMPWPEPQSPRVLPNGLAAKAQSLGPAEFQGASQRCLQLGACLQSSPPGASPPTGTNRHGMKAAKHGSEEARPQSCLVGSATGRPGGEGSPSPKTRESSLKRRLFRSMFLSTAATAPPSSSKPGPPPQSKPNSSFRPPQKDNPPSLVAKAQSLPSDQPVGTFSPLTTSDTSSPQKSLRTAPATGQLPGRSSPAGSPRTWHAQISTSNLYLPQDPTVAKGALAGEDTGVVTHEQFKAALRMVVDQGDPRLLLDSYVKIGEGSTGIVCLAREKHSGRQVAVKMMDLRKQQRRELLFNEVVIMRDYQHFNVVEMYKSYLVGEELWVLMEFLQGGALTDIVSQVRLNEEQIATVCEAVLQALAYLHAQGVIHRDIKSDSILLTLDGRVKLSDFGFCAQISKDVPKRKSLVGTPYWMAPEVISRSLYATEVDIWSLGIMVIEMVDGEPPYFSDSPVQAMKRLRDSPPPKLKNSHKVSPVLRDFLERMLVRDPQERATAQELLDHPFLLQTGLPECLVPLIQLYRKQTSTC
UniProt P54646, sequence (whole entry, looked up): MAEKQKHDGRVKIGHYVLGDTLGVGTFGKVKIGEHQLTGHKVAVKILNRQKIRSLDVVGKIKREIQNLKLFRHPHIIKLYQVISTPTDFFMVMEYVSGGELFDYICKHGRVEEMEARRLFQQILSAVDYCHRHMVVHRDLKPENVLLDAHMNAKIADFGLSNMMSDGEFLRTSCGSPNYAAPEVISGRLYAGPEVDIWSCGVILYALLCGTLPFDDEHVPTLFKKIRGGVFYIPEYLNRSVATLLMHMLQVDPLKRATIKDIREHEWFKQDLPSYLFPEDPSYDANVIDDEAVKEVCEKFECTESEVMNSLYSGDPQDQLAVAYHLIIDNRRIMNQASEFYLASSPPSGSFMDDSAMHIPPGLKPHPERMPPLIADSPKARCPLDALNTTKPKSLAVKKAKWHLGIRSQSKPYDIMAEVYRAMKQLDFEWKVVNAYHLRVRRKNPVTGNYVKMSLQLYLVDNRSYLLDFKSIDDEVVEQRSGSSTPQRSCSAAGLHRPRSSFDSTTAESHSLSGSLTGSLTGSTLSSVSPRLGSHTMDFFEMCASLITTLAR
UniProt Q14012, sequence (whole entry, looked up): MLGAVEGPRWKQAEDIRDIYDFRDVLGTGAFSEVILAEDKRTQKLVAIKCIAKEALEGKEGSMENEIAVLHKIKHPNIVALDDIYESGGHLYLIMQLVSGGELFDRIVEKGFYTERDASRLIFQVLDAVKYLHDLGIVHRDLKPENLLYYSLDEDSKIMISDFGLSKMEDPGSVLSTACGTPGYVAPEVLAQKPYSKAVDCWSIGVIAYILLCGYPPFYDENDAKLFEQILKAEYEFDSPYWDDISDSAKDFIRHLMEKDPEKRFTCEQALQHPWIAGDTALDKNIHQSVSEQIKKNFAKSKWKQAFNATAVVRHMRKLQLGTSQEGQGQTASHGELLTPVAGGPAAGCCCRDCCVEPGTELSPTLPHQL

Study 1
Structure (SMILES): Cc1ccc(O)cc1Nc1ccnc2cc(-c3ccccn3)ccc12
Target: Receptor-interacting serine/threonine-protein kinase 3 (RIPK3, Homo sapiens, UniProt Q9Y572)
UniProt Q9Y572, sequence (whole entry, looked up): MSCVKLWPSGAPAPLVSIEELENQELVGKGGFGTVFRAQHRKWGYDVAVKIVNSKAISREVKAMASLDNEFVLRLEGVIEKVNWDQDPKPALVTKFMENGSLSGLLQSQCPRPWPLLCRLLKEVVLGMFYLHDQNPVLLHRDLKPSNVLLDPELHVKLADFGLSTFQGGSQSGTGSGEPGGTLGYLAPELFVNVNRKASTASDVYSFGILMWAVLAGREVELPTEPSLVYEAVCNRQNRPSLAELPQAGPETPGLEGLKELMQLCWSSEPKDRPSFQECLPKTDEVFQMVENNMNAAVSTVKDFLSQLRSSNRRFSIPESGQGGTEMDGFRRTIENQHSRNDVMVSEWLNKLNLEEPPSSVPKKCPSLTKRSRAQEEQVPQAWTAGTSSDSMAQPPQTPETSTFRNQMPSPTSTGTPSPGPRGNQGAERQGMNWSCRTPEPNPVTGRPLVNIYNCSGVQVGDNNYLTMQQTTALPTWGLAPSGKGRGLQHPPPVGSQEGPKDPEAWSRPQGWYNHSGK
Read-out: kinase activity
Action: inhibitor
Method: ADP-Glo
Time: 1 h
tested at | inhibition [%]
1.563 nM | 20.2
100 nM | 91.5
6.25 nM | 58.8
12.5 nM | 74

Study 2
SMILES: CC(C)(C(=O)O)[C@H](NC(=O)Cc1cccc(I)c1)c1ccc2oc(=O)[nH]c2c1
Method: Incucyte 3D growth
Tested at: 30 µM
Reading: higher = more growth
cell line | time | spheroid area
IPC-298 | 210 h | 2.87e+07 a.u. and 3.77e+07 a.u. and 2.68e+07 a.u. and 3.18e+07 a.u. and 2.35e+07 a.u.
A375 | 360.52 h | 1.7e+08 a.u. and 1.66e+08 a.u. and 1.75e+08 a.u. and 1.93e+08 a.u. and 1.85e+08 a.u.
IPC-298 | 120 h | 2.74e+07 a.u. and 2.87e+07 a.u. and 1.98e+07 a.u. and 2.71e+07 a.u. and 3.19e+07 a.u. and 2.43e+07 a.u.
MEL-JUSO | 420.52 h | 2.96e+07 a.u. and 2.99e+07 a.u. and 3.93e+07 a.u. and 7.54e+07 a.u. and 4.66e+07 a.u. and 2.82e+07 a.u.
A375 | 192 h | 1.01e+08 a.u. and 1.11e+08 a.u. and 1.14e+08 a.u. and 1.16e+08 a.u. and 1.35e+08 a.u. and 1.18e+08 a.u.

Study 3
Compound: CC(C)n1cnc(-c2ccc(F)cc2)c1-c1ncc(C(=O)Nc2ccc(N3CCN(C)CC3)cc2)[nH]1
Method: phase 2a trial
Host: idiopathic pulmonary fibrosis patients
dose | setting | patients with constipation [%]
dose not given | adverse event grade 2, all dose arms pooled | 0
30 mg once daily | adverse event grade 1 | 0
dose not given | adverse event grade 4, all dose arms pooled | 0
30 mg once daily | adverse event grade 3 | 0
60 mg once daily | adverse event grade 3 | 0
60 mg once daily | adverse event grade 5 | 0

Study 4
SMILES: COc1ccc2c(c1)O[C@@H](c1ccc(OC)c(OC)c1)C[C@H]2NC(=O)C1(c2ccc3c(c2)OC(F)(F)O3)CC1
Method: competition with immobilised ligand
Tested at: 1 µM
target | read-out | remaining binding
Serine/threonine-protein kinase Sgk3 (SGK3, Homo sapiens, UniProt Q96BR1) | cell-free assay | 84%
Fibroblast growth factor receptor 4 (FGFR4, Homo sapiens, UniProt P22455) | cell-free assay | 90%
Dual specificity mitogen-activated protein kinase kinase 6 (MAP2K6, Homo sapiens, UniProt P52564) | cell-free assay | 100%
Phosphatidylinositol 3-kinase catalytic subunit type 3 (PIK3C3, Homo sapiens, UniProt Q8NEB9) | cell-free assay | 78%
Epidermal growth factor receptor (EGFR, Homo sapiens, UniProt P00533, del747-752/P753S) | cell-free assay | 62%
Death-associated protein kinase 1 (DAPK1, Homo sapiens, UniProt P53355) | cell-free assay | 99%
Cyclin-dependent kinase 11B (CDK11B, Homo sapiens, UniProt P21127) | cell-free assay | 100%
Phosphatidylinositol 4,5-bisphosphate 3-kinase catalytic subunit beta isoform (PIK3CB, Homo sapiens, UniProt P42338) | cell-free assay | 89%
Activated CDC42 kinase 1 (TNK2, Homo sapiens, UniProt Q07912) | cell-free assay | 100%
Casein kinase I isoform gamma-3 (CSNK1G3, Homo sapiens, UniProt Q9Y6M4) | cell-free assay | 100%
Serine/threonine-protein kinase BRSK2 (BRSK2, Homo sapiens, UniProt Q8IWQ3) | cell-free assay | 100%
Bone morphogenetic protein receptor type-1A (BMPR1A, Homo sapiens, UniProt P36894) | binding | 92%
Tyrosine-protein kinase ABL1, non-phosphorylated (ABL1, Homo sapiens, UniProt P00519, F317L) | cell-free assay | 94%
Rho-associated protein kinase 2 (ROCK2, Homo sapiens, UniProt O75116) | cell-free assay | 78%
Serine/threonine-protein kinase PLK2 (PLK2, Homo sapiens, UniProt Q9NYY3) | cell-free assay | 81%
Receptor tyrosine-protein kinase erbB-3 (ERBB3, Homo sapiens, UniProt P21860) | cell-free assay | 86%
Serine/threonine-protein kinase PAK 6 (PAK6, Homo sapiens, UniProt Q9NQU5) | cell-free assay | 79%
Mast/stem cell growth factor receptor Kit (KIT, Homo sapiens, UniProt P10721, D816H) | cell-free assay | 94%
Phosphatidylinositol 4-phosphate 3-kinase C2 domain-containing subunit beta (PIK3C2B, Homo sapiens, UniProt O00750) | cell-free assay | 96%
Leucine-rich repeat serine/threonine-protein kinase 2 (LRRK2, Homo sapiens, UniProt Q5S007, G2019S) | cell-free assay | 90%
Ephrin type-A receptor 4 (EPHA4, Homo sapiens, UniProt P54764) | cell-free assay | 100%
5'-AMP-activated protein kinase catalytic subunit alpha-2 (PRKAA2, Homo sapiens, UniProt P54646) | cell-free assay | 100%

Study 5
Structure (SMILES): COc1ccc2[nH]c3c4[nH]c5ccc(OC)cc5c4c4c(c3c2c1)C(=O)NC4=O
target | read-out | method | tested at | remaining binding [%]
Serine/threonine-protein kinase MRCK gamma (CDC42BPG, Homo sapiens, UniProt Q6DT37) | – | DiscoverX cell-free binding | 1000 nM | 84
Serine/threonine-protein kinase BRSK2 (BRSK2, Homo sapiens, UniProt Q8IWQ3) | binding | – | 1 µM | 6.2
Eukaryotic translation initiation factor 2-alpha kinase 1 (EIF2AK1, Homo sapiens, UniProt Q9BQI3) | binding | – | 1 µM | 86
Phosphatidylinositol 4-kinase beta (PI4KB, Homo sapiens, UniProt Q9UBF8) | binding | – | 1 µM | 100
Receptor-type tyrosine-protein kinase FLT3, autoinhibited (FLT3, Homo sapiens, UniProt P36888) | binding | – | 1 µM | 53
Tyrosine-protein kinase ABL1 (ABL1, Homo sapiens, UniProt P00519, F317I) | – | – | 1 µM | 73
Calcium/calmodulin-dependent protein kinase type 1 (CAMK1, Homo sapiens, UniProt Q14012) | binding | – | 1 µM | 80
Muscle, skeletal receptor tyrosine-protein kinase (MUSK, Homo sapiens, UniProt O15146) | binding | competition with immobilised ligand | 1 µM | 83

For quick reference, copied from above (study 5):
target | read-out | method | tested at | remaining binding [%]
Serine/threonine-protein kinase MRCK gamma (CDC42BPG, Homo sapiens, UniProt Q6DT37) | – | DiscoverX cell-free binding | 1000 nM | 84
Serine/threonine-protein kinase BRSK2 (BRSK2, Homo sapiens, UniProt Q8IWQ3) | binding | – | 1 µM | 6.2
Eukaryotic translation initiation factor 2-alpha kinase 1 (EIF2AK1, Homo sapiens, UniProt Q9BQI3) | binding | – | 1 µM | 86
Phosphatidylinositol 4-kinase beta (PI4KB, Homo sapiens, UniProt Q9UBF8) | binding | – | 1 µM | 100
Receptor-type tyrosine-protein kinase FLT3, autoinhibited (FLT3, Homo sapiens, UniProt P36888) | binding | – | 1 µM | 53
Tyrosine-protein kinase ABL1 (ABL1, Homo sapiens, UniProt P00519, F317I) | – | – | 1 µM | 73
Calcium/calmodulin-dependent protein kinase type 1 (CAMK1, Homo sapiens, UniProt Q14012) | binding | – | 1 µM | 80
